Published values of several laboratories.
Each line is one published result; not all experiments were run side by side. ± gives the spread as reported.
CHRM1: Muscarinic acetylcholine receptor M1 (CHRM1, Homo sapiens, UniProt P11229)
Chain of UniProt P11229 (whole entry, looked up): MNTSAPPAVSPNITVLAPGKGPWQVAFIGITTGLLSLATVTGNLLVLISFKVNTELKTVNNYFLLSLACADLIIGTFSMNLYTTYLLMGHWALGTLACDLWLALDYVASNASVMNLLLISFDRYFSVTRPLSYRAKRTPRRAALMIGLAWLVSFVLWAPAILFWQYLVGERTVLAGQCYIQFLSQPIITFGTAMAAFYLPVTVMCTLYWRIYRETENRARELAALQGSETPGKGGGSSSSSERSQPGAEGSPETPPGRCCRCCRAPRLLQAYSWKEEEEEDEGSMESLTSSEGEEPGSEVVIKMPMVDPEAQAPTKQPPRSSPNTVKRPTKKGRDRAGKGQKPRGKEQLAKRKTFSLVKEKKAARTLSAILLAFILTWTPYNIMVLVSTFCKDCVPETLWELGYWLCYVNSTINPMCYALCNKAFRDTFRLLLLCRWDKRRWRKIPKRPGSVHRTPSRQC

| Substance | target or system | test | test system | conditions | scale | quantity | result |
| --- | --- | --- | --- | --- | --- | --- | --- |
| Cn1c(-c2ccccc2)cc2ccccc21 | RAW264.7 | NO release, inhibitor, Griess |  | 50 µM, 20 h, LPS-stimulated |  | inhibition | 33.6% |
| CS(=O)(=O)CCNCc1ccc(-c2ccc3ncnc(Nc4ccc(OCc5cccc(F)c5)c(Cl)c4)c3c2)o1 | MDA-MB-231/BCRP | topotecan antiproliferative enhancement, clonogenic |  | 24 h, together with: 40 nM topotecan |  | EC50 | 0.25 µM |
| COCn1c(-c2ccccc2)cc2ccccc21 | RAW264.7 | NO release, inhibitor, Griess |  | 50 µM, 20 h, LPS-stimulated |  | inhibition | 33.8% |
| salvianolic acid B | human gel-filtered platelets | platelet aggregation inhibition |  | together with: thrombin 0.02 U/mL |  | EC50 | 44 ± 10 µM |
| COc1cc([C@@H]2c3cc4c(cc3[C@@H](O[C@@H]3O[C@@H]5CO[C@@H](c6cccs6)O[C@H]5[C@H](O)[C@H]3O)[C@H]3COC(=O)[C@H]23)OCO4)cc(OC)c1O | Trp53-null mouse neurospheres | cell proliferation |  | 72 h |  | EC50 | 0.11 µM |
| CN(C)C(=S)N/N=C1\C(=O)Nc2ccccc21 | MIA PaCa-2 | cell viability, MTT |  | 48 h |  | EC50 | > 18.3 µM |
| CN(C)c1ccc(C2Nc3ccc(-c4ccccc4)cc3NC3=C2C(=O)CC(C)(C)C3)cc1 (stereo not drawn) | SH-SY5Y | cell growth or viability, MTS |  |  |  | EC50 | 21 µM |
| N[C@@H](CCS(=O)(=O)O)C(=O)O | cerebellar granule cells | neuroprotection |  |  |  | EC50 | 31 µM |
| CCNC(=O)Nc1ccc(S(=O)(=O)Oc2cccnc2I)cc1 | THP-1 cells | CD11b+CD14+ differentiation, flow cytometry |  | 120 h |  | EC50 | 11 µM |
| tetraglycine | HLA-A*0201-restricted CD8 T-cell clone | TNF-alpha production |  | cross-presentation, together with: peptide-loaded mature macrophage-derived DC |  | EC50 | 1.9 µM |
| O=C(O)c1ccc(Nc2nc(-c3ccc4ccccc4c3)cs2)cc1O | 786-O | apoptosis, western blot, item: cleaved PARP, survivin |  | 24 h |  | EC50 | 4.6 to 4.9 µM |
| C=C(C)[C@@H]1CC[C@]2(CO[C@@H]3O[C@@H](C)[C@H](O)[C@@H](O)[C@H]3O)CC[C@]3(C)[C@H](CC[C@@H]4[C@@]5(C)CC[C@H](O[C@@H]6O[C@@H](C)[C@H](O)[C@@H](O)[C@H]6O)C(C)(C)[C@@H]5CC[C@]43C)[C@@H]12 | RAW 264.7 | NO production, inhibitor, Griess |  | 24 h, together with: LPS 100 ng/mL |  | EC50 | 14 ± 1 µM |
| CSc1ccc(/C=C2/C(C)=C(CC(=O)NCCN(C)C)c3cc(F)ccc32)cc1 | Jurkat E6.1 | cell growth |  |  |  | EC50 | inactive |
| CCCCN(CCCC)c1ccc(C2Nc3ccc(-c4ccccc4)cc3NC3=C2C(=O)CC(C)(C)C3)cc1 (stereo not drawn) | SH-SY5Y | cell growth or viability, MTS |  |  |  | EC50 | > 50 µM |
| Cc1nn(-c2nc3ccc(Cl)c(Cl)c3[nH]2)c(O)c1C1OC(=O)c2ccccc21 (stereo not drawn) | RAW-ISG | IFN reporter gene, inhibitor |  | together with: HT-DNA |  | EC50 | 2.62 µM |
| CC1(C)CC(=O)C2=C(C1)Nc1cc(C(F)(F)F)ccc1NC2c1ccc(N2CCCCC2)cc1 (stereo not drawn) | SH-SY5Y | cytoprotection |  | together with: thapsigargin 7.5 µM |  | EC50 | < 20 µM |
| COC(=O)c1ccc(COc2ccccc2-c2cc(=O)n(C3CCCCC3O)cn2)cc1 (stereo not drawn) | CHRM1 | positive allosteric modulator, IP1 accumulation | CHO-M1 cells | 10 µM, 60 min, 37 °C, together with: ACh | reference: ACh alone, higher = stronger potentiation | ΔpEC50 of ACh | 1.38 ± 0.13 log units |
| CCOC(=O)c1[nH]c2cc(Cl)ccc2c1C(C(=O)NC(C)(C)C)N(C=O)Cc1ccc(Cl)cc1 (single isomer, unassigned; (-)) | MOLM-13 | metabolic activity, WST-1 |  | 48 h |  | EC50 | 25.2 µM |
| O=c1cc(-c2ccccc2OCc2ccc(-c3nccs3)cc2)ncn1C1CCCCC1O (stereo not drawn) | CHRM1 | allosteric agonist, IP1 accumulation | CHO-M1 cells | 1 µM, unit not given | reference: maximum ACh response | change in baseline activity | 5.3 ± 3.6 |
| CC[C@H](C)[C@@H]1NC(=O)[C@H](Cc2ccc(O)cc2)NC(=O)[C@@H](N)CSSC[C@@H](C(=O)N2CCC[C@H]2C(=O)N[C@@H](CC(C)C)C(=O)NCC(N)=O)NC(=O)[C@H](CC(N)=O)NC(=O)[C@H](CCC(N)=O)NC1=O | hiPSC-derived cardiomyocytes | intracellular Ca2+ increase, FLIPR |  |  |  | EC50 | 0.174 µM |
| CN(C)c1ccc(C2Nc3ccc(C(=O)c4ccccc4)cc3NC3=C2C(=O)CC(C)(C)C3)cc1 (stereo not drawn) | SH-SY5Y | cell growth or viability, MTS |  |  |  | EC50 | 15.3 µM |
| N[C@@H](CCC(=O)O)C(=O)O | cerebellar granule cells | neuroprotection |  |  |  | EC50 | 76 µM |
| CC1(C)CC(=O)C2=C(C1)Nc1cc(Cl)ccc1NC2c1ccc(N2CCCCC2)cc1 (stereo not drawn) | SH-SY5Y | cell growth or viability, MTS |  |  |  | EC50 | 40.4 µM |
| O=C(Nc1nccs1)C(c1ccccc1)N1Cc2ccc(-c3ccc(N4CCNCC4)nc3)cc2C1=O (stereo not drawn) | Ba/F3 EGFR L858R/T790M | cell proliferation |  |  |  | EC50 | 4.9 µM |
| CC1(C)CC(=O)C2=C(C1)Nc1cc(C(=O)c3ccccc3)ccc1NC2c1ccc(N2CCCCC2)cc1 (stereo not drawn) | SH-SY5Y | cell growth or viability, MTS |  |  |  | EC50 | 15 µM |
| insulin icodec | rat primary adipocytes | lipogenesis, agonist, [3H]glucose incorporation into lipid |  | 0.1% HSA |  | EC50 | 0.135 µM |
| CC1(C)CC(=O)C2=C(C1)Nc1cc(C(=O)c3ccccc3)ccc1NC2c1ccc(N2CCOCC2)cc1 (stereo not drawn) | SH-SY5Y | cell growth or viability, MTS |  |  |  | EC50 | 19.8 µM |
| NC(=S)N/N=C1\C(=O)Nc2ccccc21 | MIA PaCa-2 | cell viability, MTT |  | 48 h |  | EC50 | > 100 µM |
| CC1(C)CC(=O)C2=C(C1)Nc1cc(-c3ccccc3)ccc1NC2c1ccc(N2CCCC2)cc1 (stereo not drawn) | SH-SY5Y | cell growth or viability, MTS |  |  |  | EC50 | 13.8 µM |
| CCCCN1CCN(C2CCCCC2)CC1 | pancreatic cancer cell lines | cell viability |  | 48 h, over all lines tested |  | EC50 | > 100 µM |
